# Published values from different studies.
# Lines come from different studies, so protocols differ.
# CA9: Carbonic anhydrase 9 (CA9, Homo sapiens, UniProt Q16790)
# MTNR1A: Melatonin receptor type 1A (MTNR1A, Homo sapiens, UniProt P48039)
# Sequence of UniProt P48039 (whole entry, looked up): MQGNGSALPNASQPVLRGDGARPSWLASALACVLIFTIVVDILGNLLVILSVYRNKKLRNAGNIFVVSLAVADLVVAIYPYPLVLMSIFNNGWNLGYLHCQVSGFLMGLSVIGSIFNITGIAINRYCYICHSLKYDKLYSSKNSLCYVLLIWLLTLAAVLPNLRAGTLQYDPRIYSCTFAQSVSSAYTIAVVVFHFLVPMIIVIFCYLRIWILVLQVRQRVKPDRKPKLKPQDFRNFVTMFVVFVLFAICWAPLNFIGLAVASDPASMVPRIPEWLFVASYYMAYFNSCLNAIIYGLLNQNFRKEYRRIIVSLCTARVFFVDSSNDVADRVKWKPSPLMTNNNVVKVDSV
# CSNK1D: Casein kinase I isoform delta (CSNK1D, Homo sapiens, UniProt P48730)
# Sequence of UniProt P48730 (whole entry, looked up): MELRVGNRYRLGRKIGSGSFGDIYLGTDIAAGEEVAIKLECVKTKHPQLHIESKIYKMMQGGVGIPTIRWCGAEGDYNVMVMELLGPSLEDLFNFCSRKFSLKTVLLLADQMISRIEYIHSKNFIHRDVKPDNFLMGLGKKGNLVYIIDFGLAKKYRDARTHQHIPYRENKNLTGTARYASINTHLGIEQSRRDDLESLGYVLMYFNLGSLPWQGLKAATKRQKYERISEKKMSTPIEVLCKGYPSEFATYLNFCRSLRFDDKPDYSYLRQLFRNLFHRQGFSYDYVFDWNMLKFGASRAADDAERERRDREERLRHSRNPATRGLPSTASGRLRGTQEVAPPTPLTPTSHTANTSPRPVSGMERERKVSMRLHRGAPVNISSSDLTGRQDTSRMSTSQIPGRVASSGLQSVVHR
# CSNK1A1: Casein kinase I isoform alpha (CSNK1A1, Homo sapiens, UniProt P48729)
# Sequence of UniProt P48729 (whole entry, looked up): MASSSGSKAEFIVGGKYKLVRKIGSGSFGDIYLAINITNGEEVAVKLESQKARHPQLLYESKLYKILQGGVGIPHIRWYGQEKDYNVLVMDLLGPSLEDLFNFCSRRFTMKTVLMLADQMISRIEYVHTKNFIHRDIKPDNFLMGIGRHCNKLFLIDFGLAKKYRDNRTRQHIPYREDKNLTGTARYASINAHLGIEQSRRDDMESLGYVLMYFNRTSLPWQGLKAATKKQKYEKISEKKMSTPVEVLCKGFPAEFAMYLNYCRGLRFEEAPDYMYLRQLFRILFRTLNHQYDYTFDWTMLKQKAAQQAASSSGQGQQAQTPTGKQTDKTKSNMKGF
# Sequence of UniProt P0DMS8 (whole entry, unmodified, looked up): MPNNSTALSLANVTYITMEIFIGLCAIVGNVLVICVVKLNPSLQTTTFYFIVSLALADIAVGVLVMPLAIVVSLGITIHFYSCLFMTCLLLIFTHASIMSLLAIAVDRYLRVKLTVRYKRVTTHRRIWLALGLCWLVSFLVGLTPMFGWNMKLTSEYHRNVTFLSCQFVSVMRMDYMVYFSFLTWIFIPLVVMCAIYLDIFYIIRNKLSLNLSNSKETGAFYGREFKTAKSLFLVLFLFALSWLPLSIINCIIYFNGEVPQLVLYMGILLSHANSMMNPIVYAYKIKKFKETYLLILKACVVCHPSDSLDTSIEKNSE
Compound,target,read-out,action,method,endpoint,result
CN(C)c1ncnc2c1ncn2[C@@H]1O[C@H](CO)[C@@H](O)[C@H]1O,"Adenosine receptor A3 (ADORA3, Homo sapiens, UniProt P0DMS8, L264N)",G protein activation,agonist,,EC50,98000 nM
CN(CC(=O)Nc1ccc(N2CCOCC2)cc1)C(=O)c1ccc(S(N)(=O)=O)c(Cl)c1,CA9,enzyme activity,inhibitor,,IC50,80 nM
COC(=O)c1coc(CSc2nnc(C3CC3)[nH]2)c1,MTNR1A,cAMP,agonist,luciferase,EC50,1.51 nM
O=C(COc1cccc2ccccc12)Nc1nc2ccccc2[nH]1,CSNK1D,binding,,SPR,Kd,1100 nM
CC(SC1=NNC(=C2C=Nc3ccccc32)N1c1ccc(Cl)cc1)C(=O)Nc1ccc(S(N)(=O)=O)cc1 (stereo not shown),CA9,enzyme activity,inhibitor,,IC50,169 nM
CN(Cc1cccc(O)c1)C(=O)c1cccc(OCC(F)(F)F)c1,MTNR1A,cAMP,agonist,luciferase,EC50,43.8 nM
CC(OC(=O)CCC(=O)c1ccc(N)cc1)C(=O)Nc1ccc(S(N)(=O)=O)cc1 (stereo not shown),CA9,enzyme activity,inhibitor,,IC50,15.1 nM
CC(=O)Nc1sc2c(c1-c1nc3ccccc3s1)CCN(C(C)C)C2,CSNK1D,binding,,SPR,Kd,> 50000 nM
Cc1ccc(C(=O)N2CCC(c3cccc(S(N)(=O)=O)c3)CC2)cc1NC(=O)c1ccco1,CA9,enzyme activity,inhibitor,,IC50,37.2 nM
O=c1[nH]c(N2CCCC2)nc2ccccc12,CSNK1A1,binding,,SPR,Kd,46300 nM
Cc1ccc(-c2nnc(Nc3ccc(C(=O)N4CCCCC4)cc3)c3ccccc23)cc1S(N)(=O)=O,CA9,enzyme activity,inhibitor,,IC50,1870 nM
COc1ccc(CN(C(=O)C2CC(F)(F)C2)c2ccncc2)cc1,MTNR1A,cAMP,agonist,luciferase,EC50,28.8 nM
Cn1cc(-c2ccc(NC(=O)Nc3nc(CC(=O)Nc4ccc(S(N)(=O)=O)cc4)cs3)cc2)nn1,CA9,enzyme activity,inhibitor,,IC50,29.5 nM
COc1ccc(F)cc1CNc1cccc2c1oc(=O)n2C,MTNR1A,cAMP,agonist,luciferase,EC50,621 nM
N#Cc1cc(I)c(O)c([N+](=O)[O-])c1,CSNK1A1,binding,,SPR,Kd,> 50000 nM
COC(=O)c1cccc(N(C)Cc2ccncc2)n1,MTNR1A,cAMP,agonist,luciferase,EC50,7.88 nM
Cc1cc(Nc2ccc(Cl)cc2)c2ccccc2n1,CSNK1D,binding,,SPR,Kd,> 50000 nM
CN(CCc1cnccn1)c1ccc(Br)c(C(F)(F)F)n1,MTNR1A,cAMP,agonist,luciferase,EC50,475 nM
N#Cc1cncc2c1NCCC2,CSNK1D,binding,,SPR,Kd,> 50000 nM

# A few entries again:
Compound,target,read-out,action,method,endpoint,result
Cc1ccc(C(=O)N2CCC(c3cccc(S(N)(=O)=O)c3)CC2)cc1NC(=O)c1ccco1,CA9,enzyme activity,inhibitor,,IC50,37.2 nM
O=C(COc1cccc2ccccc12)Nc1nc2ccccc2[nH]1,CSNK1D,binding,,SPR,Kd,1100 nM
COC(=O)c1cccc(N(C)Cc2ccncc2)n1,MTNR1A,cAMP,agonist,luciferase,EC50,7.88 nM
